Published values gathered from unrelated publications.
Each line is one published result; not all experiments were run side by side. Values joined by “and” are separate records of one study, mostly repeats; a detail may differ. Numbers after ± are the reported error. In brackets after ≈: the same amount, converted by molar mass.

SMILES | target or system | assay | system | setting | scale | endpoint | value
Cc1ccccc1C(c1c[nH]c(=O)[nH]c1=O)c1c[nH]c(=O)[nH]c1=O | HIV-1 subtype C | p24 antigen production, p24 ELISA | – | 1000 µg/mL | – | inhibition | 89%
COc1ccc(N2CCN(C(=O)c3ccc(Cl)c([N+](=O)[O-])c3)CC2)cc1 | Saccharomyces cerevisiae | CPY trafficking | – | 20 µM | – | mature CPY | 66%
C=C[C@]1(C)C[C@@H](OC(=O)CSc2ccc(NC(=O)c3ccco3)cc2)[C@]2(C)[C@H](C)CC[C@]3(CCC(=O)[C@H]32)[C@@H](C)[C@@H]1O | Mycoplasma gallisepticum | – | infected chickens | intramuscular, 30 mg/kg daily x3, scale 0 to 4 | direction not given | air sac lesion score | 2 and 1 and 3
CCOc1c(NC(=O)c2ccc(NC(=O)c3ccc(NC(=O)[C@H](Cc4c[nH]nn4)NC(=O)c4ccc(NC(=O)/C(C)=C/c5ccc(O)cc5)cc4)cc3)c(OCC)c2O)ccc(C(=O)O)c1O | Salmonella enterica serovar Kentucky | broth microdilution | ciprofloxacin-sensitive | – | – | MIC | 0.063 µg/mL (≈ 0.069 µM)
CN(C)CCNc1c2c(c(C#N)c3nc4ccccc4n13)CCCC2 | Trypanosoma cruzi | reporter mRNA translation, inhibitor, measured: capped polyadenylated Renilla luciferase mRNA | cell-free extract | concentration not given | reference: control RNA | relative translation | 110%
Cc1ccc2c(c1)nc(NC(=O)c1cccc(C(F)(F)F)c1)n2[C@H]1CC[C@H](N)CC1 | Trypanosoma brucei gambiense | growth inhibition, CellTiter-Glo | STIB930 | 48 h, mean value | – | EC50 | 382 nM
O=C(Nc1ccc([N+](=O)[O-])cc1O)Nc1ccccc1Br | Cryptosporidium parvum | – | HCT-8 | – | reference: TC50 HCT-8 over EC50 parasite | selectivity index | 13 and > 13
CC(C)Oc1cccc(NC(=O)CCCN2C(=O)c3ccccc3C2=O)c1 | Arabidopsis thaliana | – | seedlings DR5 reporter line | concentration not given, 7 days | – | primary root growth | inhibited
O=C1C=C[C@H](O/C=C2/C(=O)O[C@@H]3c4ccccc4C[C@H]23)O1 (racemic) | Phelipanche ramosa | seed germination, stimulant | seeds | 1 µM | reference: (±)-GR24 | maximum germination stimulation | 92%
CC(C)n1ncc2c(C(=O)NCC3CNC3)cc(C3CC3)nc21 | Enterovirus A71 | viral replication | Tainan/4643/1998 | 9000 nM | – | plaque reduction | 84.1% and 80.6%
C=C(NC(=O)c1csc(-c2nc3c(cc2O)-c2nc(cs2)C(=O)NC(C(C)O)C(=O)NC(=C(C)OC)c2nc(cs2)C(=O)NC2c4nc(cs4)C(=O)NC(COC(=O)c4c5c6c(cccc6n4O)COC(=O)C(OC4CC(C)(O)C(N(C)C)C(C)O4)C2OC5)c2nc-3cs2)n1)C(N)=O (stereo not drawn) | Streptococcus pneumoniae | – | -25, immunocompromised mice, lung infection, lung | 8 mg/kg/day once daily, 24 h post-dose | – | bacterial load | 4.1 log CFU/g
Cc1cccc2c1N(C(=O)n1ccnn1)CC2 | Lactuca sativa | – | seeds | 100 µM, in darkness, together with: 1 µM karrikin KAR1 | – | germination rate | 25.2% and 22.9% and 34.7% and 31.3% and 19.2% and 20%
[2H]C([2H])(N)C([2H])([2H])NC(=O)c1cc(C2CC2)nc2c1cnn2C(C)C | Enterovirus A71 | viral replication | Tainan/4643/1998 | 300 nM | – | plaque reduction | 0%
Cc1ccc(-c2nc(N)c3c(Nc4ccc(Cl)cc4)n[nH]c3n2)cc1 | rhinovirus B5 | viral cytopathic effect | HeLa | – | – | IC50 | 170 nM
FC(F)(F)c1cccc(CNc2nc(NC3CCN(Cc4ccccc4)CC3)c3nc[nH]c3n2)c1 | Cryptococcus neoformans | RNA-seq, measured: VRK1 (CNAG_06161) mRNA | – | 48 µg/mL, 3 h | reference: untreated wild type | log2 fold change | -0.816
O=C(c1ccc(F)cc1)N1CCN(c2ccc(F)cc2)CC1 | Saccharomyces cerevisiae | cell growth | wild type | – | – | IC50 | > 200000 nM
CCOc1c(NC(=O)c2ccc(NC(=O)[C@H](Cc3c[nH]nn3)NC(=O)c3ccc(NC(=O)/C(C)=C/c4ccc(O)cc4)cc3)cc2)ccc(C(=O)Nc2ccc(C(=O)O)c(O)c2OC)c1O | Salmonella enterica serovar Kentucky | broth microdilution | ciprofloxacin-resistant | – | – | MIC | 0.125 µg/mL (≈ 0.139 µM)
O=[N+]([O-])c1cc(Br)cc([N+](=O)[O-])c1NS(=O)(=O)c1ccc(Br)cc1 | Arabidopsis thaliana | – | Col-0 wild type, seeds | 1 µM | – | number of germinated seeds | 38 and 37
Cc1cccc2c1N(C(=O)n1ccnc1)CC2 | Arabidopsis thaliana | – | wild type, seeds | 1 µM, after high-temperature exposure, together with: 1 µM karrikin KAR2 | – | germination rate | 56.3% and 53.7% and 57.9% and 53.8% and 47.1% and 60.9% and 75.8%
Nc1nc(-c2ccc(Cl)cc2)nc2[nH]nc(Nc3cccc(F)c3)c12 | rhinovirus B5 | viral cytopathic effect | HeLa | – | – | IC50 | 1060 nM
CC1=NN(c2ccccc2F)C(=O)/C1=N\Nc1ccc(S(N)(=O)=O)cc1 | Saccharomyces cerevisiae | – | – | 200 µg/mL | – | glucose uptake | 44.5%
O=c1[nH]cc(C(c2cccc(Cl)c2)c2c[nH]c(=O)[nH]c2=O)c(=O)[nH]1 | HIV-1 subtype C | p24 antigen production, p24 ELISA | – | 3.9 µg/mL | – | inhibition | < 25%
CC1CS(=O)(=O)CCN1/N=C/c1ccc([N+](=O)[O-])o1 (stereo not drawn) | Trypanosoma cruzi | reporter mRNA translation, inhibitor, measured: capped polyadenylated Renilla luciferase mRNA | cell-free extract | concentration not given | reference: control RNA | relative translation | 105%

SMILES | target or system | assay | system | setting | scale | endpoint | value
Cc1ccc(Nc2n[nH]c3nc(-c4cccc(F)c4)nc(N)c23)cc1 | rhinovirus B5 | viral cytopathic effect | HeLa | – | – | IC50 | 190 nM
CC1=C[C@H](O/C=C2/C(=O)O[C@@H]3c4ccccc4C[C@H]23)OC1=O | Phelipanche ramosa | seed germination | – | 1 µM | reference: (±)-compound | Emax | 100%
Cc1ccc(C(=O)c2sc(S)c(-c3nc4ccccc4s3)c2N)cc1 | Hepatitis C virus | viral replication, inhibitor | Huh7.5, genotype 4 ED43 | concentration not given, non-toxic dose, HCVcc | – | viral titre reduction | 36.7%
CC(C)n1ncc2c(C(=O)NC[C@@H](C)N)cc(C3CC3)nc21 | Enterovirus A71 | viral replication | Tainan/4643/1998 | 9000 nM | – | plaque reduction | 100%
COc1cc(C(=O)O)ccc1NC(=O)c1ccc(NC(=O)c2ccc(NC(=O)[C@H](Cc3c[nH]nn3)NC(=O)c3ccc(NC(=O)/C(C)=C/c4ccc(O)cc4)cc3)cc2)cc1O | Salmonella enterica serovar Kentucky | broth microdilution | ciprofloxacin-sensitive | – | – | MIC | 0.5 µg/mL (≈ 0.596 µM)
CCCC[C@@H]1NC(=O)[C@@H](CC(C)C)NC(=O)[C@H](CCCCNC(=O)CN2CCN(CC(=O)O)CCN(CC(=O)O)CC2)NC(=O)[C@@H](CO)NC(=O)[C@H](Cc2c[nH]cn2)NC(=O)[C@@H](Cc2c[nH]c3ccccc23)NC1=O [copper-64 labelled] | – | – | Balb/c mice, plasma | intravenous, dose not given | – | tissue uptake | 0.37 ± 0.05 %ID/g
CN(Cc1ccc(C2(C(F)(F)F)CCC2)cc1)Cc1cccc2ccccc12 | Trichophyton mentagrophytes | microbial growth, disc diffusion | ATCC18748 | 0.004 µg/mL, 72 h | – | inhibition zone | 12.5 mm
COc1cc(C(=O)Nc2ccc(C(=O)O)c(O)c2OC)ccc1NC(=O)c1ccc(NC(=O)[C@H](Cc2c[nH]nn2)NC(=O)c2ccc(NC(=O)/C(C)=C/c3ccc(O)cc3)cc2)cc1 | Salmonella enterica serovar Kentucky | broth microdilution | ciprofloxacin-sensitive | – | – | MIC | 0.125 µg/mL (≈ 0.144 µM)
COc1ccc(CNc2nc([C@H]3CC[C@H](C(=O)O)CC3)nc3sc4ccccc4c23)cc1Cl | Cryptosporidium parvum | parasite growth, immunofluorescence imaging | HCT-8, Iowa | 53.9 µM | – | inhibition | 93% and 87.6%
Nc1nc(-c2ccccc2)nc2[nH]nc(Nc3cccc(C(F)(F)F)c3)c12 | rhinovirus B5 | viral cytopathic effect | HeLa | – | – | IC50 | 2160 nM
C/C(=C\c1ccc(O)cc1)C(=O)Nc1ccc(C(=O)N[C@@H](Cc2c[nH]nn2)C(=O)Nc2ccc(C(=O)Nc3ccc(C(=O)Nc4ccc(C(=O)O)cc4)cc3)cc2)cc1 | Salmonella enterica serovar Kentucky | broth microdilution | ciprofloxacin-resistant | – | – | MIC | 0.25 µg/mL (≈ 0.315 µM)
N=C(N)NCCC[C@@H]1NC(=O)[C@H](CCCNC(=N)N)NC(=O)[C@@H](C(c2ccccc2)c2ccccc2)NC(=O)[C@H](Cc2c[nH]c3ccccc23)NC(=O)[C@@H](C(c2ccccc2)c2ccccc2)NC(=O)[C@@H](CCCNC(=N)N)NC(=O)[C@@H](CCCNC(=N)N)NC1=O | Staphylococcus aureus | – | MRSA ATCC BAA-1556 | MIC | – | time to complete killing | 3 to 4 h
C/C(=C\c1ccc(O)cc1)C(=O)Nc1ccc(C(=O)N[C@@H](Cc2c[nH]nn2)C(=O)Nc2ccc(C(=O)Nc3ccc(C(=O)Nc4ccc(C(=O)O)c(O)c4)c(O)c3)cc2)cc1 | Salmonella enterica serovar Kentucky | broth microdilution | ciprofloxacin-sensitive | – | – | MIC | 0.125 µg/mL (≈ 0.152 µM)
O=c1[nH]cc(C(c2ccccc2Br)c2c[nH]c(=O)[nH]c2=O)c(=O)[nH]1 | HIV-1 subtype C | p24 antigen production, p24 ELISA | – | 15.6 µg/mL | – | inhibition | < 25%
Nc1nc(-c2ccccc2)nc2[nH]nc(Nc3ccccc3F)c12 | rhinovirus B5 | viral cytopathic effect | HeLa | – | – | IC50 | 20 nM
O=c1[nH]cc(C(c2ccc(Cl)cc2)c2c[nH]c(=O)[nH]c2=O)c(=O)[nH]1 | HIV-1 subtype C | p24 antigen production, p24 ELISA | – | 15.6 µg/mL | – | inhibition | < 25%
Nc1nc(-c2ccccc2)nc2[nH]nc(Nc3ccccc3C(F)(F)F)c12 | rhinovirus B5 | viral cytopathic effect | HeLa | – | – | IC50 | 3830 nM
O=[N+]([O-])c1cn2c(n1)OC[C@@H](OCc1ccc(OC(F)(F)F)cc1)C2 | Mycobacterium marinum | – | – | – | – | MIC90 | 50 µM (≈ 18 µg/mL)
CC1=C(C)[C@H](O/C=C2/C(=O)O[C@@H]3c4ccccc4C[C@H]23)OC1=O (racemic) | Phelipanche ramosa | seed germination, stimulant | seeds | 1 µM | reference: (±)-GR24 | maximum germination stimulation | 95%
O=c1[nH]cc(C(c2cccc(C(F)(F)F)c2)c2c[nH]c(=O)[nH]c2=O)c(=O)[nH]1 | HIV-1 subtype C | p24 antigen production, p24 ELISA | – | 250 µg/mL | – | inhibition | 55%
COc1cc(C(=O)O)ccc1NC(=O)c1ccc(NC(=O)c2ccc(NC(=O)[C@H](Cc3c[nH]nn3)NC(=O)c3ccc(NC(=O)/C(C)=C/c4ccc(O)cc4)cc3)cc2)c(OC)c1 | Salmonella enterica serovar Kentucky | broth microdilution | ciprofloxacin-resistant | – | – | MIC | 0.5 µg/mL (≈ 0.586 µM)
COC1CCC(N(C(=O)C2CCC(C)CC2)c2cc(C3=CCCCC3)sc2C(=O)O)CC1 (stereo not drawn) | Arabidopsis thaliana | – | Col-0 | 10 µM | – | root hair density | 21.7 root hairs/mm

For quick reference, copied from above:
SMILES | target or system | assay | system | setting | scale | endpoint | value
CC(C)n1ncc2c(C(=O)NC[C@@H](C)N)cc(C3CC3)nc21 | Enterovirus A71 | viral replication | Tainan/4643/1998 | 9000 nM | – | plaque reduction | 100%
O=C(c1ccc(F)cc1)N1CCN(c2ccc(F)cc2)CC1 | Saccharomyces cerevisiae | cell growth | wild type | – | – | IC50 | > 200000 nM
O=c1[nH]cc(C(c2ccccc2Br)c2c[nH]c(=O)[nH]c2=O)c(=O)[nH]1 | HIV-1 subtype C | p24 antigen production, p24 ELISA | – | 15.6 µg/mL | – | inhibition | < 25%
Cc1ccccc1C(c1c[nH]c(=O)[nH]c1=O)c1c[nH]c(=O)[nH]c1=O | HIV-1 subtype C | p24 antigen production, p24 ELISA | – | 1000 µg/mL | – | inhibition | 89%
